Experimental data of several laboratories.
Lines come from different studies, so protocols differ. ± gives the spread as reported.
Protein kinase 6: Protein kinase 6 (Plasmodium falciparum, UniProt Q8IDW1)
ACHE: Acetylcholinesterase (ACHE, Homo sapiens, UniProt P22303)
cas9: CRISPR-associated endonuclease Cas9/Csn1 (cas9, Streptococcus pyogenes serotype M1, UniProt Q99ZW2)
HLA class I histocompatibility antigen, B alpha chain allele B*18:01: HLA class I histocompatibility antigen, B alpha chain, allele B*18:01 (Homo sapiens, UniProt P01889)

| Compound | target | assay | system | setting | IC50 [µM] |
| --- | --- | --- | --- | --- | --- |
| CCN1CCN(Cc2ccc(Nc3nc4ccc(Oc5ccnc(N)c5)cc4n3C)cc2C(F)(F)F)CC1 | Protein kinase 6 | enzyme activity, inhibitor | – | – | > 50 |
| O=c1c2cc(Cl)ccc2[nH]c(=S)n1Cc1cccnc1 | Potassium voltage-gated channel subfamily KQT member 1, with KCNE1 (KCNQ1, Homo sapiens, UniProt P51787) | KCNQ1/minK current, inhibitor, manual patch clamp | CHO cells | – | 0.36 |
| Nc1c2c(nc3c1C(c1cccc(Br)c1)c1ccc(OCC(=O)c4ccc(Cl)cc4)cc1O3)CCCC2 (centres unmarked) | ACHE | enzyme activity, inhibitor | – | – | 0.994 |
| CC(C)(c1ccccc1)N1CCCCC1 | Cytochrome P450 2B6 (CYP2B6, Homo sapiens, UniProt P20813) | enzyme activity, inhibitor | – | 30 min, pH 7.4 | 10.2 |
| CSCC[C@H](NC(=O)[C@H](Cc1ccc(O)cc1)NC(=O)[C@H](CC(C)C)NC(=O)[C@H](CCSC)NC(=O)[C@H](CO)NC(=O)CNC(=O)[C@H](CC(C)C)NC(=O)[C@H](CC(C)C)NC(=O)[C@@H](N)CCSC)C(=O)O | HLA class I histocompatibility antigen, B alpha chain (Homo sapiens, UniProt P01889) | peptide-MHC binding, radioligand competition binding | – | – | > 70 |
| O=C(NCc1ccc(F)cc1)c1cccc(Nc2ccc(-c3ccccc3)nn2)c1 | Anoctamin-6 (ANO6, Homo sapiens, UniProt Q4KMQ2) | anion channel activity, inhibitor, YFP fluorescence quenching | FRT cells expressing ANO6 | – | 0.091 ± 0.011 |
| C[C@H]1CN(c2n[nH]c3nc(N[C@H]4CC[C@H](NS(=O)(=O)CCC(F)(F)F)CC4)ncc23)CCO1 | Isoleucine--tRNA ligase, cytoplasmic (Homo sapiens, UniProt P41252) | biochemical | – | – | ≥ 20 |
| CCN1CCN(Cc2ccc(Nc3nc4ccc(Oc5ccnc(NC(C)=O)c5)cc4n3C)cc2C(F)(F)F)CC1 | Protein kinase 6 | enzyme activity, inhibitor, ADP-Glo | – | added: ATP 100 µM | 1 ± 0.3 |
| CN(C)C(=O)C(CCN1CCC(O)(c2ccc(Cl)cc2)CC1)(c1ccccc1)c1ccccc1 | Calcium-activated potassium channel subunit alpha-1, with LRRC26 γ1 subunit (KCNMA1, Homo sapiens, UniProt Q12791) | BK channel conductance, inhibitor, inside-out patch clamp | – | BKα/γ1, Vm 20 mV, nominally Ca2+-free | 6.2 ± 1.9 |
| CCCCCCCCCC(=O)CC(=O)N[C@H]1CCOC1=O | expR (Pectobacterium carotovorum, UniProt Q4KS34) | – | – | – | 0.6 |
| CCC(C(=O)Nc1cc(NC2COC2)ccc1C)n1cc(Br)cc2nc(SCc3ccc(F)cc3)nc1-2 (centres unmarked) | CAPN1 (Homo sapiens, UniProt P07384) | enzyme activity | – | – | > 100 |
| C[N+]1(C)CCC(OC(=O)C(O)(c2ccccc2)C2CCCC2)C1 (centres unmarked) | Gag polyprotein, nucleocapsid protein p7 (gag, Human immunodeficiency virus type 1 group M subtype B, UniProt P04591) | NCp7-RNA binding, AlphaScreen | HIV-1 | added: 25 nM NCp7, 12.5 nM RNA | 11.1 |
| CCOc1ccc2nc3cc(N)ccc3c(N)c2c1 | cas9 | circular plasmid substrate | Streptococcus pyogenes | – | 100 to 200 |
| COc1ccccc1C1c2ccc(OCC(=O)c3ccccc3)cc2Oc2nc3c(c(N)c21)CCCC3 (centres unmarked) | ACHE | enzyme activity, inhibitor | – | – | 2.49 |
| CCC[C@H](NC(=O)[C@@H]1[C@H]2CCC[C@H]2CN1C(=O)[C@@H](NC(=O)[C@@H](NC(=O)c1cnccn1)C1CCCCC1)C(C)(C)C)C(=O)C(=O)NC1CC1 | Chymase (CMA1, Homo sapiens, UniProt P23946) | enzyme activity, inhibitor | – | added: FP-biotin 1 µM | 0.725 |
| CO[C@H]1C[C@H](O[C@@H]2/C(C)=C/C[C@@H]3C[C@@H](C[C@]4(CC[C@H](C)[C@@H](C5CCCCC5)O4)O3)OC(=O)[C@@H]3C=C(C)/C(=N/O)[C@H]4OC/C(=C\C=C\[C@@H]2C)[C@]43O)O[C@@H](C)[C@@H]1O | Bile acid receptor (NR1H4, Homo sapiens, UniProt Q96RI1) | biochemical | – | – | 0.94 ± 0.11 |
| Cc1cc(-c2ccc(/N=N/c3ccc4c(S(=O)(=O)O)cc(S(=O)(=O)O)c(N)c4c3O)c(C)c2)ccc1/N=N/c1ccc2c(S(=O)(=O)O)cc(S(=O)(=O)O)c(N)c2c1O | cas9 | circular plasmid substrate | Streptococcus pyogenes | – | 20 to 50 |
| CNC(C)Cc1ccc2nsnc2c1 (centres unmarked) | SLC6A4 (Homo sapiens, UniProt P31645) | – | – | – | 6.4 ± 1 |
| N.N.[Cl][Pt][Cl] | cas9 | circular plasmid substrate | Streptococcus pyogenes | – | 100 to 200 |

| Compound | target | assay | system | setting | IC50 [µM] |
| --- | --- | --- | --- | --- | --- |
| O=C(O)c1cccc(C(=O)O)n1 | dapA (Escherichia coli K-12, UniProt P0A6L2) | enzyme activity, inhibitor | – | 30 °C | 17100 |
| CC[C@H](C)[C@H](NC(=O)[C@H](CC(C)C)NC(=O)CNC(=O)[C@H](CCCNC(=N)N)NC(=O)[C@H](CC(C)C)NC(=O)[C@@H](NC(=O)[C@H](CCSC)NC(=O)[C@@H]1CCCN1C(=O)CN)C(C)C)C(=O)N[C@H](C(=O)O)[C@@H](C)O | HLA class I histocompatibility antigen, B alpha chain allele B*18:01 | peptide-MHC binding, radioligand competition binding | – | – | > 70 |
| Cc1ccccc1 | Cytochrome P450 2E1 (CYP2E1, Homo sapiens, UniProt P05181) | enzyme activity, inhibitor | – | 30 min, pH 7.4 | 70 |
| CC(C)[C@H](NC(=O)[C@@H](NC(=O)[C@H](CCC(=O)O)NC(=O)[C@@H](NC(=O)[C@H](Cc1ccccc1)NC(=O)[C@H](C)NC(=O)[C@H](CO)NC(=O)[C@@H](NC(=O)[C@@H](N)CO)[C@@H](C)O)C(C)C)[C@@H](C)O)C(=O)O | HLA class I histocompatibility antigen, B alpha chain allele B*18:01 | peptide-MHC binding, radioligand competition binding | – | – | > 70 |
| COc1ccccc1C1c2ccc(O)cc2Oc2nc3c(c(N)c21)CCCC3 (centres unmarked) | ACHE | enzyme activity, inhibitor | – | – | 5.88 |
| Cc1cc2c(C(C)C)c(O)c(O)c(C=O)c2c(O)c1-c1c(C)cc2c(C(C)C)c(O)c(O)c(C=O)c2c1O | cas9 | circular plasmid substrate | Streptococcus pyogenes | – | 50 to 100 |
| Nc1ccn([C@@H]2O[C@H](COP(=O)(O)OP(=O)(O)OP(=O)(O)O)[C@@H](O)[C@H]2O)c(=O)n1 | pyrG (Escherichia coli, UniProt P0A7E5) | enzyme activity | – | added: 6.0 mM glutamine, 1.0 mM ATP, 0.05 mM UTP | 107 |
| O=C(O)C1=CC(=C(c2ccc(O)c(C(=O)O)c2)c2ccc(O)c(C(=O)O)c2)C=CC1=O | cas9 | linear substrate | Streptococcus pyogenes | – | 5 to 10 |
| CNC(=O)Oc1ccccc1OC(C)C | Acetylcholinesterase (Rhipicephalus microplus, UniProt O45210, W384F) | – | – | – | 0.047 |
| COc1cc(Nc2ncc(F)c(Nc3ccc4c(n3)NC(=O)C(C)(C)O4)n2)cc(OC)c1OC | PTPN12 (Homo sapiens, UniProt Q05209) | – | – | PTP-PEST | > 10 |
| Clc1ccc2c(c1)C(N1CCNCC1)=Nc1ccccc1O2 | Neuronal acetylcholine receptor; alpha9/alpha10 (Homo sapiens, UniProt Q9GZZ6+Q9UGM1) | inhibitor | – | – | 0.46 ± 0.11 |
| OCc1cc(C(O)CNCCCCCCOCCCCc2ccccc2)ccc1O (centres unmarked) | ADRA2B (Homo sapiens, UniProt P18089) | inhibitor | – | – | 13.3 |
| CC[C@H](C)[C@H](NC(=O)[C@H](CC(C)C)NC(=O)[C@H](CC(C)C)NC(=O)[C@H](CCCNC(=N)N)NC(=O)[C@H](CCCNC(=N)N)NC(=O)[C@@H](N)CCCCN)C(=O)N[C@@H](CC(C)C)C(=O)NCC(=O)N[C@@H](CCCNC(=N)N)C(=O)O | HLA class I histocompatibility antigen, B alpha chain, allele B*27:05 (Homo sapiens, UniProt P01889) | peptide binding, fluorescence anisotropy | – | 18 h, 4 °C | 0.111 |
| COc1ccc(S(=O)(=O)Oc2ccc3c(c2)Oc2nc4c(c(N)c2C3c2ccc(Cl)c(Cl)c2)CCCC4)cc1 (centres unmarked) | ACHE | enzyme activity, inhibitor | – | – | 2.21 |
| CC(C)[C@H](NC(=O)[C@H](C)NC(=O)[C@@H](N)Cc1ccccc1)C(=O)N[C@@H](CC(=O)O)C(=O)N[C@@H](C)C(=O)N[C@@H](C)C(=O)N[C@@H](CCCCN)C(=O)N[C@@H](C)C(=O)N[C@@H](Cc1ccc(O)cc1)C(=O)O | HLA class I histocompatibility antigen, B alpha chain allele B*18:01 | peptide-MHC binding, radioligand competition binding | – | – | 35.9 |
| COc1cccc2c1C(=O)c1c(O)c3c(c(O)c1C2=O)C[C@@](O)(C(=O)CO)C[C@@H]3O[C@H]1C[C@H](N)[C@@H](O)[C@H](C)O1 | cas9 | circular plasmid substrate | Streptococcus pyogenes | – | 2 to 5 |
| c1ccc2c(c1)OCC(C1=NCCN1)O2 (centres unmarked) | imidazoline I2 receptor, rat central | radioligand binding | – | – | 0.0075 |
| C[C@H]1COCCN1c1nc(NCc2cccnc2C(F)(F)F)c2cccnc2n1 | human NMDA receptor | – | – | agonist mode | > 100 |
| CCN(CC)C(=O)N[C@@H]1C[C@@H]2c3cccc4[nH]cc(c34)C[C@H]2N(C)C1 | Beta-lactamase TEM (bla, Escherichia coli, UniProt P62593) | inhibitor | – | – | > 30 |

A few entries again:
| Compound | target | assay | system | setting | IC50 [µM] |
| --- | --- | --- | --- | --- | --- |
| CC[C@H](C)[C@H](NC(=O)[C@H](CC(C)C)NC(=O)CNC(=O)[C@H](CCCNC(=N)N)NC(=O)[C@H](CC(C)C)NC(=O)[C@@H](NC(=O)[C@H](CCSC)NC(=O)[C@@H]1CCCN1C(=O)CN)C(C)C)C(=O)N[C@H](C(=O)O)[C@@H](C)O | HLA class I histocompatibility antigen, B alpha chain allele B*18:01 | peptide-MHC binding, radioligand competition binding | – | – | > 70 |
| Cc1ccccc1 | Cytochrome P450 2E1 (CYP2E1, Homo sapiens, UniProt P05181) | enzyme activity, inhibitor | – | 30 min, pH 7.4 | 70 |
| CC(C)[C@H](NC(=O)[C@@H](NC(=O)[C@H](CCC(=O)O)NC(=O)[C@@H](NC(=O)[C@H](Cc1ccccc1)NC(=O)[C@H](C)NC(=O)[C@H](CO)NC(=O)[C@@H](NC(=O)[C@@H](N)CO)[C@@H](C)O)C(C)C)[C@@H](C)O)C(=O)O | HLA class I histocompatibility antigen, B alpha chain allele B*18:01 | peptide-MHC binding, radioligand competition binding | – | – | > 70 |
